Results pooled from the literature.
Each line is one published result; not all experiments were run side by side.
Organism: Candida albicans

For CC(C)C[C@H](NC(=O)[C@H](CCCNC(=N)N)NC(=O)[C@H](Cc1c[nH]c2ccccc12)NC(=O)[C@H](CCCNC(=N)N)NC(=O)[C@H](Cc1c[nH]c2ccccc12)NC(=O)[C@H](Cc1c[nH]c2ccccc12)NC(=O)[C@H](Cc1c[nH]c2ccccc12)NC(=O)[C@H](CCCNC(=N)N)NC(=O)[C@H](Cc1c[nH]c2ccccc12)NC(=O)[C@H](CCCNC(=N)N)NC(=O)CN)C(N)=O, the MIC was 32 µM (broth microdilution; SP3903, RPMI 1640-MOPS; 48 h, 30 °C).
CC[C@H](C)[C@H](NC(=O)[C@H](CC(C)C)NC(=O)[C@@H](NC(=O)[C@H](Cc1c[nH]c2ccccc12)NC(=O)[C@H](Cc1c[nH]c2ccccc12)NC(=O)[C@H](CCCNC(=N)N)NC(=O)[C@@H](N)CCCNC(=N)N)[C@@H](C)O)C(N)=O has an MIC of 32 µg/mL.
With C[C@@H](O)[C@H](NC(=O)[C@H](Cc1c[nH]c2ccccc12)NC(=O)[C@H](Cc1c[nH]c2ccccc12)NC(=O)[C@H](Cc1c[nH]c2ccccc12)NC(=O)[C@@H](NC(=O)[C@H](Cc1c[nH]c2ccccc12)NC(=O)[C@H](CCCNC(=N)N)NC(=O)[C@@H](N)CCCNC(=N)N)[C@@H](C)O)C(=O)N[C@@H](Cc1c[nH]c2ccccc12)C(=O)N[C@@H](CCCNC(=N)N)C(=O)N[C@@H](CCCNC(=N)N)C(N)=O the MIC was 8 µM (CGMCC 2.209, RPMI 1640 MOPS-buffered; 48 h, 37 °C, tested up to 128 µM).
CC[C@H](C)[C@H](NC(=O)CN)C(=O)NCC(=O)N[C@@H](C)C(=O)N[C@H](C(=O)N[C@@H](CC(C)C)C(=O)N[C@@H](CCCCN)C(=O)N[C@H](C(=O)N[C@@H](CC(C)C)C(=O)N[C@H](C(=O)N[C@H](C(=O)NCC(=O)N[C@@H](CC(C)C)C(=O)N1CCC[C@H]1C(=O)N[C@@H](C)C(=O)N[C@@H](CC(C)C)C(=O)N[C@H](C(=O)N[C@@H](CO)C(=O)N[C@@H](Cc1c[nH]c2ccccc12)C(=O)N[C@H](C(=O)N[C@@H](CCCCN)C(=O)N[C@@H](CCCNC(=N)N)C(=O)N[C@@H](CCCCN)C(=O)N[C@@H](CCCNC(=N)N)C(=O)N[C@@H](CCC(N)=O)C(=O)N[C@@H](CCC(N)=O)C(N)=O)[C@@H](C)CC)[C@@H](C)CC)[C@@H](C)O)[C@@H](C)O)C(C)C)C(C)C has an MIC of 4 µM (broth microdilution; SP 3876, RPMI-1640; 48 h, 30 °C).
For CC(C)C[C@H](NC(=O)[C@@H](NC(=O)[C@H](Cc1c[nH]c2ccccc12)NC(=O)[C@H](Cc1c[nH]c2ccccc12)NC(=O)[C@H](CCCNC(=N)N)NC(=O)[C@@H](N)CCCNC(=N)N)[C@@H](C)O)C(=O)N[C@H](C(N)=O)C(C)C, the MIC was 32 µg/mL.
For CC[C@H](C)[C@H](NC(=O)[C@H](CCCNC(=N)N)NC(=O)[C@H](Cc1c[nH]c2ccccc12)NC(=O)[C@H](CCCNC(=N)N)NC(=O)[C@H](Cc1c[nH]c2ccccc12)NC(=O)[C@H](Cc1c[nH]c2ccccc12)NC(=O)[C@H](Cc1c[nH]c2ccccc12)NC(=O)[C@H](CCCNC(=N)N)NC(=O)[C@H](Cc1c[nH]c2ccccc12)NC(=O)[C@@H](N)CCCNC(=N)N)C(N)=O, the MIC was 8 µM (broth microdilution; SP3931, RPMI 1640-MOPS; 48 h, 30 °C).
C#Cc1ccc(C=NNC(=O)c2ccc(COC)cc2)c(O)c1 gave an MIC of 4 µg/mL (A39; 48 h).
For N=C(N)NCCC[C@H](NC(=O)[C@H](Cc1c[nH]c2ccccc12)NC(=O)[C@H](CCCNC(=N)N)NC(=O)[C@H](Cc1c[nH]c2ccccc12)NC(=O)[C@H](Cc1c[nH]c2ccccc12)NC(=O)[C@H](Cc1c[nH]c2ccccc12)NC(=O)[C@H](CCCNC(=N)N)NC(=O)[C@H](Cc1c[nH]c2ccccc12)NC(=O)[C@@H](N)CCCNC(=N)N)C(=O)N[C@@H](Cc1ccccc1)C(N)=O, the MIC was 8 µM (broth microdilution; CGMCC 2.209, RPMI 1640-MOPS; 48 h, 30 °C).
CC[C@H](C)[C@H](NC(=O)CN)C(=O)N[C@@H](C)C(=O)N[C@@H](CC(=O)O)C(=O)N[C@@H](C)C(=O)N[C@H](C(=O)N[C@@H](CCCCN)C(=O)N[C@@H](C)C(=O)N[C@H](C(=O)N[C@@H](C)C(=O)N[C@@H](CCCCN)C(=O)N[C@@H](C)C(=O)N[C@@H](CC(C)C)C(=O)NCC(N)=O)[C@@H](C)CC)[C@@H](C)CC has an MIC of 128 µg/mL (ATCC 90029, RPMI MOPS; 24 h, pH 7.0, 33 °C).

Excerpt of the above:
C#Cc1ccc(C=NNC(=O)c2ccc(COC)cc2)c(O)c1 gave an MIC of 4 µg/mL (A39; 48 h).
